Measurements from different studies.
A part holds a random share of what one study measured. Several values in a cell are separate wells, animals, samples, runs or records.
Chain of UniProt P28482 (whole entry, looked up): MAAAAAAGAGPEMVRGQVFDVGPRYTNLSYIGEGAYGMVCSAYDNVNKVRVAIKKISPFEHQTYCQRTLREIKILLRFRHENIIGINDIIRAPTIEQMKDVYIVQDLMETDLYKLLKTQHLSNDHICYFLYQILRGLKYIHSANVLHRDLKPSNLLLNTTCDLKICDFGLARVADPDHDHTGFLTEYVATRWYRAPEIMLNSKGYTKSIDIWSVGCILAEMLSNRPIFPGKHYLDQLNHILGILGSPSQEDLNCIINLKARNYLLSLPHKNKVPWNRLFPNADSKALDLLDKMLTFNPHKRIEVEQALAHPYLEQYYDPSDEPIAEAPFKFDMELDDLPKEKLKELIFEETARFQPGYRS
Chain of UniProt P06493 (whole entry, looked up): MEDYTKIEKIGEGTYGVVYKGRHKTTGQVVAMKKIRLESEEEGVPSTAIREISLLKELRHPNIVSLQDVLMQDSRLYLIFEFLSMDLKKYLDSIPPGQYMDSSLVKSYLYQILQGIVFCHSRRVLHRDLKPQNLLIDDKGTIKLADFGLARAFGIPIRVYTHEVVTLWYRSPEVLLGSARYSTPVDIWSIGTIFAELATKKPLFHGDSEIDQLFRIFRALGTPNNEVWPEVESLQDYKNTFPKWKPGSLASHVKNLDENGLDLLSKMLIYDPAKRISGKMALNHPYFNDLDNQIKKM
Chain of UniProt Q96PY6 (whole entry, looked up): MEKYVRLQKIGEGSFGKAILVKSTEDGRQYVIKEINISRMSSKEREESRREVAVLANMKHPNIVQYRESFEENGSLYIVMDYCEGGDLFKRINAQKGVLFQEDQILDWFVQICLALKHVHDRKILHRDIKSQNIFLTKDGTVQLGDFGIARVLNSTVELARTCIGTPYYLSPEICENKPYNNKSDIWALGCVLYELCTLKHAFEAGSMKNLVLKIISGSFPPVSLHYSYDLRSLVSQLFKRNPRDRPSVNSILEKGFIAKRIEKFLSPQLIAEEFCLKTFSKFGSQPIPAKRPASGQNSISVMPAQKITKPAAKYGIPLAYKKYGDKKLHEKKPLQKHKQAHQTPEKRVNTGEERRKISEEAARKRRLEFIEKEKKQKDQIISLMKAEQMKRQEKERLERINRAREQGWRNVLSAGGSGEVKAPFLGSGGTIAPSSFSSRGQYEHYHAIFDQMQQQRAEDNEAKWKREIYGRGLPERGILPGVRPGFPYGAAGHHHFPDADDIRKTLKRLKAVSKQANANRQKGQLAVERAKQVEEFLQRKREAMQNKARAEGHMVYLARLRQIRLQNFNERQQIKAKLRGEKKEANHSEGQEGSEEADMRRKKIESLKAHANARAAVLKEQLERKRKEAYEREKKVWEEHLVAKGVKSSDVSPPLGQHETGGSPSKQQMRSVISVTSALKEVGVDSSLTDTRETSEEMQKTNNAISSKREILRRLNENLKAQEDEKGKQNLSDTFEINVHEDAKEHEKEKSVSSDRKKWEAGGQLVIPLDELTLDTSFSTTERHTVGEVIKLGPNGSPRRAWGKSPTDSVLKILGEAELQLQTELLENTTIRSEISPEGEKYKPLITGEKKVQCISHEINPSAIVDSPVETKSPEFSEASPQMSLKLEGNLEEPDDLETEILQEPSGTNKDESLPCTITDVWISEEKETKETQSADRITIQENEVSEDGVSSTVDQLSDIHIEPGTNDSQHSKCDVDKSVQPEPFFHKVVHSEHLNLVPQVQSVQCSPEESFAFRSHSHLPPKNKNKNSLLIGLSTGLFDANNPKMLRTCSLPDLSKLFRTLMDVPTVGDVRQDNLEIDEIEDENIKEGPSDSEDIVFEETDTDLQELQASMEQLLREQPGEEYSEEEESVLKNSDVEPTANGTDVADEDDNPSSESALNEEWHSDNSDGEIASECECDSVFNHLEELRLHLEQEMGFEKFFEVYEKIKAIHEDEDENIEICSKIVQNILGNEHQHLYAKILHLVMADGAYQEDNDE
Chain of UniProt P50750 (whole entry, looked up): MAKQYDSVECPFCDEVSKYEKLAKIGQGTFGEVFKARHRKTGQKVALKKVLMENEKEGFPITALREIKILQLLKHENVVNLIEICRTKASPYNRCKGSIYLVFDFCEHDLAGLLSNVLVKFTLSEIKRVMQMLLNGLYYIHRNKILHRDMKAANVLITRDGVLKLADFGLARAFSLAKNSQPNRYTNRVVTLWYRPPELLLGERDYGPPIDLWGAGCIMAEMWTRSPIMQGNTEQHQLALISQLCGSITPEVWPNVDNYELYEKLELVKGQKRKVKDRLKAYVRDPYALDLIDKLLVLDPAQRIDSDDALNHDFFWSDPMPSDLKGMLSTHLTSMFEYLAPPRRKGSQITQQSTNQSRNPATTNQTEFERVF
Chain of UniProt O00141 (whole entry, looked up): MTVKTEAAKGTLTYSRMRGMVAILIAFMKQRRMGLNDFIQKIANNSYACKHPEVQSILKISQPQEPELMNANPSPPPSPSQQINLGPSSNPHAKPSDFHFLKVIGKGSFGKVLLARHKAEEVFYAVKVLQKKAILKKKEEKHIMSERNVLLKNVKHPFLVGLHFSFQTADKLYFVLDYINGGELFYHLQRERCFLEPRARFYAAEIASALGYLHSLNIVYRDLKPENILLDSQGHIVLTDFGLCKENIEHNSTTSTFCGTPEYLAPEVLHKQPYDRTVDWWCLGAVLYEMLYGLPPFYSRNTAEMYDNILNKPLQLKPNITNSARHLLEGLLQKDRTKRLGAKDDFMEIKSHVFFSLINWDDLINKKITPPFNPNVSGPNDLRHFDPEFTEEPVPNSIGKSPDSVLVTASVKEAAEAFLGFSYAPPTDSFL
Chain of UniProt P42681 (whole entry, looked up): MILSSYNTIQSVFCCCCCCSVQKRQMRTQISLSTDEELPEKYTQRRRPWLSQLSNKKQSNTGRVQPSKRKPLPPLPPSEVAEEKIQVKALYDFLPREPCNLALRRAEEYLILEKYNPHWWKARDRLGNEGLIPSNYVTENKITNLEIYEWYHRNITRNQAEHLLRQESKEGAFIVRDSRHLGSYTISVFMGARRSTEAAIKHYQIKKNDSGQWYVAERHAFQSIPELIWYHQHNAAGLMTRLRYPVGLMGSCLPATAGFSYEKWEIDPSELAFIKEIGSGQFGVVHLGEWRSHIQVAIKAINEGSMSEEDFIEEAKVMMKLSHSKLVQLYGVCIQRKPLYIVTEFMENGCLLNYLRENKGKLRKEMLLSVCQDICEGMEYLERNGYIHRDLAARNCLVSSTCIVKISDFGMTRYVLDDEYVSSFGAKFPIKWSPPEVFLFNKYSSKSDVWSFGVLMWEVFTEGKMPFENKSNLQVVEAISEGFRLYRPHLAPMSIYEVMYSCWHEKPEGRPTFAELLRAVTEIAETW
Chain of UniProt Q6P2M8 (whole entry, looked up): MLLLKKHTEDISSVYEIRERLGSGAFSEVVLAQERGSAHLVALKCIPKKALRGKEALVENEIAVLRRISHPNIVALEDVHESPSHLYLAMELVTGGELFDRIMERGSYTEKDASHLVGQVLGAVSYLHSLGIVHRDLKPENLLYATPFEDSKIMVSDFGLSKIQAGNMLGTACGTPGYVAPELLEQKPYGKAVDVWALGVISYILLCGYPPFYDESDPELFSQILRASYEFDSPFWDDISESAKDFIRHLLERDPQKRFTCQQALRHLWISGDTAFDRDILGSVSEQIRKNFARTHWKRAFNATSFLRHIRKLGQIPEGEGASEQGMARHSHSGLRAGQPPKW
Chain of UniProt Q13976 (whole entry, looked up): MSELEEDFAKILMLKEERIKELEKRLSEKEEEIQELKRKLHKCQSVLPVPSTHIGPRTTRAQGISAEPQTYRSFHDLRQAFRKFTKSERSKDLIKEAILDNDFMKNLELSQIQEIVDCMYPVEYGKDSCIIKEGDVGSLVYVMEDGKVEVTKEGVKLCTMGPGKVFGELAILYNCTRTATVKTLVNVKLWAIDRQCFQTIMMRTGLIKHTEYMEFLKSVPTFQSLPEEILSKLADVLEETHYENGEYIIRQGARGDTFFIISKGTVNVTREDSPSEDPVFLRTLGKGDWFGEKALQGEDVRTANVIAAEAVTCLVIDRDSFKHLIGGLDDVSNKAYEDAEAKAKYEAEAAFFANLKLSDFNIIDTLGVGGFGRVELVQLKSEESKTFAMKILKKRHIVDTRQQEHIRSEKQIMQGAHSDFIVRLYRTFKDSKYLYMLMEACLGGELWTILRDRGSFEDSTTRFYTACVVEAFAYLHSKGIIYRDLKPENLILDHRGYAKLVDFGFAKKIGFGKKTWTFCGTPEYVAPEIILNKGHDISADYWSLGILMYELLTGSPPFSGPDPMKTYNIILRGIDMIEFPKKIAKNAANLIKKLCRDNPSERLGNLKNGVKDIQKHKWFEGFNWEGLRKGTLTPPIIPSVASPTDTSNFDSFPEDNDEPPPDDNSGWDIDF

Study 1 — observed: enzyme activity; mode: inhibitor; tested at: 10 µM
Target: Calcium/calmodulin-dependent protein kinase type II subunit alpha (CAMK2A, Homo sapiens, UniProt Q9UQM7)
Chain of UniProt Q9UQM7 (whole entry, looked up): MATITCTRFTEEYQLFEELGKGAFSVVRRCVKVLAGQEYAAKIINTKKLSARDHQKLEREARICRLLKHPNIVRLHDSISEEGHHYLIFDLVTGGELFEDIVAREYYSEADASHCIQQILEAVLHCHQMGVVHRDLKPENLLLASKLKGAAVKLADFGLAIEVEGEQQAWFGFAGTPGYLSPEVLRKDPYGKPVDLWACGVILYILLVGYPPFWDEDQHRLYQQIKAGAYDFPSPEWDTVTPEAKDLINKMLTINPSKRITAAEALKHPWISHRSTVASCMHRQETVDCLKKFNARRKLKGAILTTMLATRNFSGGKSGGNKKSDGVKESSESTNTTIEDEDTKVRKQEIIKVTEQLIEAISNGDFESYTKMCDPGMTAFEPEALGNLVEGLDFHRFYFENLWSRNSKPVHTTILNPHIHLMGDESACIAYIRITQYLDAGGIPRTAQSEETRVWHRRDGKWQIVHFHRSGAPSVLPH
Compound	inhibition
CC[C@H](CC[C@@H](C)[C@H]1CC[C@H]2[C@@H]3CC=C4C[C@@H](O)CC[C@]4(C)[C@H]3CC[C@]12C)C(C)C	-0.11% and 0.21% and 0.24%
COc1c(CC=C(C)C)c(O)cc2oc(=O)c(-c3ccc(O)cc3O)cc12	-1%
OC[C@H]1O[C@@H](Oc2cc3c(O)cc(O)cc3[o+]c2-c2cc(O)c(O)c(O)c2)[C@H](O)[C@@H](O)[C@@H]1O	8%
COc1cc(/C=C/C(=O)CC(=O)/C=C/c2ccc(O)c(OC)c2)ccc1O	25%
CNCC(=O)OCc1cccnc1N(C)C(=O)OC(C)[n+]1cnn(C[C@](O)(c2cc(F)ccc2F)[C@@H](C)c2nc(-c3ccc(C#N)cc3)cs2)c1 (some centres unmarked)	-4%
O=c1cc(-c2ccc(O)c(O)c2)oc2c([C@@H]3O[C@H](CO)[C@@H](O)[C@H](O)[C@H]3O[C@H]3O[C@@H](CO)[C@@H](O)[C@@H](O)[C@@H]3O)c(O)cc(O)c12	-21%
Cn1ccnc1S	2%
NCCc1cc[nH]n1	-4%
COC(=O)c1ccccc1C(=O)O	8%
NC(CO)C(=O)O (racemic)	23%

Study 2 — observed: enzyme activity; mode: inhibitor; tested at: 0.5 µM; relative to: control
Structure (SMILES): COc1cc2ncnc(Nc3ccc(OCc4ccccc4)cc3)c2cc1OC
target	remaining activity [%]
MAPK11 (Homo sapiens, UniProt Q15759)	96.9
PLK3 (Homo sapiens, UniProt Q9H4B4)	98
CLK4 (Homo sapiens, UniProt Q9HAZ1)	99.5
MINK1 (Homo sapiens, UniProt Q8N4C8)	94.3
MAPK1 (Homo sapiens, UniProt P28482)	100
ROCK1 (Homo sapiens, UniProt Q13464)	96.6
MARK4 (Homo sapiens, UniProt Q96L34)	99.5
PNCK (Homo sapiens, UniProt Q6P2M8)	99
TXK (Homo sapiens, UniProt P42681)	99.4
Cyclin-dependent kinase 9, with cyclin K (CDK9, Homo sapiens, UniProt P50750)	103
RPS6KA4 (Homo sapiens, UniProt O75676)	105
MARK2 (Homo sapiens, UniProt Q7KZI7)	108
Cyclin-dependent kinase 1, with cyclin A (CDK1, Homo sapiens, UniProt P06493)	97.2
CLK3 (Homo sapiens, UniProt P49761)	98.2

Study 3 — mode: inhibitor; tested at: 1 µM
SMILES: C=CC(=O)N1CCC[C@@H](n2nc(-c3ccc(Oc4ccccc4)cc3)c3c(N)ncnc32)C1
target	observed	inhibition
SGK1 (Homo sapiens, UniProt O00141)	enzyme activity	9%
PI4KB (Homo sapiens, UniProt Q9UBF8)	enzyme activity	8%
FER (Homo sapiens, UniProt P16591)	enzyme activity	0%
ALK (Homo sapiens, UniProt Q9UM73, C1156Y)	–	0%
NEK1 (Homo sapiens, UniProt Q96PY6)	enzyme activity	0%
MAPK1 (Homo sapiens, UniProt P28482)	enzyme activity	11%
PRKG1 (Homo sapiens, UniProt Q13976)	enzyme activity	0%
FLT3 (Homo sapiens, UniProt P36888, D835V/ITD)	–	26%

Study 4 — SMILES: c1ccc(N2CCN(Cc3nc4ccccc4[nH]3)CC2)nc1; method: competition with immobilised ligand; tested at: 1 µM
target	observed	remaining binding
SRPK1 (Homo sapiens, UniProt Q96SB4)	binding	100%
GAK (Homo sapiens, UniProt O14976)	binding	100%
PIKFYVE (Homo sapiens, UniProt Q9Y2I7)	binding	100%
CSNK1G2 (Homo sapiens, UniProt P78368)	cell-free assay	100%
IRAK3 (Homo sapiens, UniProt Q9Y616)	binding	100%
BRAF (Homo sapiens, UniProt P15056, V600E)	cell-free assay	100%
IGF1R (Homo sapiens, UniProt P08069)	cell-free assay	100%
ZAP70 (Homo sapiens, UniProt P43403)	binding	100%
TYRO3 (Homo sapiens, UniProt Q06418)	cell-free assay	93%

For quick reference, copied from above (study 2):
target	remaining activity [%]
MARK4 (Homo sapiens, UniProt Q96L34)	99.5
PNCK (Homo sapiens, UniProt Q6P2M8)	99
TXK (Homo sapiens, UniProt P42681)	99.4
Cyclin-dependent kinase 9, with cyclin K (CDK9, Homo sapiens, UniProt P50750)	103
